# Assay results of several laboratories.
# Every numbered part comes from another study and shows a few of its results, in no order.

# Sample 1
# Target: Ras GTPase-activating protein-binding protein 1, full length (G3BP1, Homo sapiens, UniProt Q13283)
# Chain of UniProt Q13283 (whole entry, looked up): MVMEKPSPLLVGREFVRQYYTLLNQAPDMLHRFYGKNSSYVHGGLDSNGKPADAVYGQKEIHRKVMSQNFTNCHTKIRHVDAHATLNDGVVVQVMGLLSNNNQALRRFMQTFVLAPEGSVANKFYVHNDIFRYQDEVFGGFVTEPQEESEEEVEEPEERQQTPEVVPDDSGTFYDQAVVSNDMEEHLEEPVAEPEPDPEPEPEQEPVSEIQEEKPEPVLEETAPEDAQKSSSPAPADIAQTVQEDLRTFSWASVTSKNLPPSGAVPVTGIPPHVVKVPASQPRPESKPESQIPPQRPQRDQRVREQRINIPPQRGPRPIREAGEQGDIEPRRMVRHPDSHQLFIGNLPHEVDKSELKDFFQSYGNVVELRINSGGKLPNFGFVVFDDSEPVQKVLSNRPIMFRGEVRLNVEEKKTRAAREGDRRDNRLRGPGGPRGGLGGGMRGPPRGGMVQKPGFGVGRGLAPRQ
# Technique: RNA Bind-n-Seq
# Molecule type: RNA
# Sample: in vitro
# Concentration: 200 nM
# Notes: whole 134-nt RNA, ends assumed
# Added: 150 mM LiCl
# Baseline: input library
# Direction: higher = stronger binding
# Each molecule: 7-deaza-guanosine replaces G
Strand,log2 enrichment
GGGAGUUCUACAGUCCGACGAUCCAAGUCCUGUGCUACACAUCGUAUGUACCGAAUCGGGUUUGGUUUGGGGUUUGGGAAAGUAUUAUGUUACGCCGUUCGGAUCUGCACUUCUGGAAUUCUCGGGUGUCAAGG,-1.34
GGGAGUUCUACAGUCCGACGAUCGUCCUGUGCUACACAUCGUAUGUACCGAAUCGGGUUUUUUGGUUUUUUGGGUUUUUUGGAAAGUAUUAUGUUACGCCGUUCGGAUCUGCAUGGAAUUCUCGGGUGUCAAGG,-0.77
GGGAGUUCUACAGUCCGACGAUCCACAGACAACAGGCACCCACACAGACACAGAGGGAAGGGGUUGGGAUGGGGACAGGGUGCACAGCAGGGCGGGGUAGGACCCCAGCCCCUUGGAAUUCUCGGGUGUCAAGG,0.227
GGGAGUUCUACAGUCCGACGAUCCUCAAGUCCUGUGCUACACAUCGUAUGUACCGAAUCGGGGAGGGGAGGAGGGGAAAGUAUUAUGUUACGCCGUUCGGAUCUGCACUUCCAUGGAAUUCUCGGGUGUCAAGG,-0.0617
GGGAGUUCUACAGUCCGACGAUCGCAGGAAGUAAAAACAAAUGGAAAUGCUUCGGAUAGUGGCAGGGGUGGGGGUUGCUAAGGGAAGGGUGGGAUGGGAGUGGGUAAAGAGUUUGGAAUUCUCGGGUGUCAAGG,0.0889
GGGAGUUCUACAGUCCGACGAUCAGGCUAUGGAGGCUAUGAUGAUUACAAUGGCUAUAAUGAUGGCUAUGGAUUUGGGUCAGAUAGAUUUGGAAGAGGUAAGGUAAGAAUUGAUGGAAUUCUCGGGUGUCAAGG,-0.4
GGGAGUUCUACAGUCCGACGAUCUGUAACCUGGGGAUUCUCUCAACUCUCUUGUCCCACACAGACUUCUAUGAGGAAAUCCAGGAGUUUGUGAAAGAUGUCUUUUCACCUAUAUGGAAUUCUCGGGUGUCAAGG,0.792
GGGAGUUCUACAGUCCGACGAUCAGUCCUGUGCUACACAUCGUAUGUACCGAAUCGGGGUGGGGAGGGGUUUUUUUGGGGAAAGUAUUAUGUUACGCCGUUCGGAUCUGCACUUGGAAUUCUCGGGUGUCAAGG,0.637
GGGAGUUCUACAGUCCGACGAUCCUCAAGUCCUGUGCUACACAUCGUAUGUACCGAAUCGGUUUGGUUUUUGGAGGAAAGUAUUAUGUUACGCCGUUCGGAUCUGCACUUCCAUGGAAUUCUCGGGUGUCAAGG,0.351
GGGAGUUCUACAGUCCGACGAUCACCAUGCAGGUGGGCAUCUUUGGGAAGUGGGGCAAGGGGGGGAUAGGGAGGGGGGUAACACUUAGGGAACAGGUGGUCCCAGGUCGUUUCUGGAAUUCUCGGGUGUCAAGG,0.0629
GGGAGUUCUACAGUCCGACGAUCCUCAAGUCCUGUGCUACACAUCGUAUGUACCGAAUCGGGCCGGGGCCGGGCCGGAAAGUAUUAUGUUACGCCGUUCGGAUCUGCACUUCCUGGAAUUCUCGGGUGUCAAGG,0.361

# Sample 2
# Target: Hepatocyte nuclear factor 3-beta, forkhead domain (FOXA2, Homo sapiens, UniProt Q9Y261, residues 142-269)
# Technique: protein-binding microarray
# Molecule type: double-stranded DNA, one strand shown
# Sample: in vitro
# Concentration: not given
# Notes: k-mer, scored over probes, only values ≥0.25
# Direction: higher = stronger binding
# Construct (chain): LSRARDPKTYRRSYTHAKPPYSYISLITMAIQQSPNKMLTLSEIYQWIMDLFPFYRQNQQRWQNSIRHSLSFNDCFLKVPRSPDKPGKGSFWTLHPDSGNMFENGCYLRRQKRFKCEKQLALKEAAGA
Strand,E-score
GTATAGAC,0.331
ATCAACAT,0.406
ATATGAAC,0.285
GATATTGA,0.253
ATACATAG,0.322
ACATCATA,0.284
TACTACTA,0.267
CTATTCCA,0.257
CGTACATA,0.362
ATGTTTTC,0.256
AAAATATC,0.256
GATTAACA,0.309
GTATGAAA,0.268
AACACTAG,0.279
AAATATGG,0.356
AGTAACAG,0.296
AATGCAAA,0.307
AATAGCAA,0.299
AAGTACTA,0.313
AGTACAAT,0.284
GTAGAATA,0.3
AATAGATA,0.253
ACTAACAA,0.299

# Sample 3
# Target: RNA binding protein fox-1 homolog 2, RRM domain, GST-SBP tag (RBFOX2, Homo sapiens, UniProt O43251-10, residues 100-194)
# Technique: RNA Bind-n-Seq
# Molecule type: RNA
# Sample: in vitro
# Concentration: 365 nM
# Notes: natural RNA segment, single round, ends assumed
# Baseline: no-protein control
# Direction: higher = stronger binding
# Residues (chain): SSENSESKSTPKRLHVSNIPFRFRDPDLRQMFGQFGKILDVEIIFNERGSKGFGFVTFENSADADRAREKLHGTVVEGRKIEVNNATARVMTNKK
Strand,RBNS enrichment (R)
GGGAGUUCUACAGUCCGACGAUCAGGAGCACAAGAGAGGAGCCUGUGGCCCCAUGCAGAUGAAAAGGACGGGCAGGGUCUCCUGAGCAGCAGGUGGCUCGAGGCGGUUAGCAGGCUCCAGCAGCUCCCUUCUUUGGAAUUCUCGGGUGCCAA,0.955
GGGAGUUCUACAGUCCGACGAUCCAUAUAUGGCAGCAUUCAGCUCUCACCCAACACUUGUGCUGGGCUUCCCUUCAGCAGCCUCCCAGACCUCCCCAUUCUUCCAGGAUGCUGUCUGCCAGGUCACCACUCUGUGGAAUUCUCGGGUGCCAA,0.43
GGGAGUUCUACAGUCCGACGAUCAUUCUUGACAUUUGGGUUUCAAAAUUGUGUUAGCACUUAUUUUAGAAACAUUAAUUAAGUGUAUGGCUGCCUUUGAAAUACUUGAUGUGUUGUUGUUGCCUUACAGAGGAUGGAAUUCUCGGGUGCCAA,0.35
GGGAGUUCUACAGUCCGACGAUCGCUUGUGAUUUUUGUACAUUGAUUUUGUAUCCUGAGACUUUGCUGAAGUUGCUUAUCAGCUUAAGGAGAUUUUGGGCUGAGACGAUGGGGUUUUCUAGAUAUACAAUCAUUGGAAUUCUCGGGUGCCAA,0.582
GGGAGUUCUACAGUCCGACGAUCUAAAUGUCCCGUAGAUUCUUCCUGUAGGAAAACGUUACAAGUAUUCAAAGACAGCUAGCUGUCACUGGUGCUCCCCCCAAAGCGUUUCACCCCCUUCUGUGCAUCUUAGGUGGAAUUCUCGGGUGCCAA,1.2
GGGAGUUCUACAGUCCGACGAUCGGUUUUUCCUCUUUGCUCCCUCCAAUCUUGAGAUUGGGUUUUGCUUUAGAGUGCAAGUAUCAUAAUUCCGUAUGAUAGAUGGGGCCUGGACACCCAUCUCAACAGGGUCAUGGAAUUCUCGGGUGCCAA,1.05
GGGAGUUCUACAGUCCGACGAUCAACCUCUUCAUUCCUAAUUCCUCCAAGGUACUAUUUCAUAGUUGCUCUGAAUUAAGGAUUUCAGGUUUAACUGGUAGUGAAAGACUGCACCUAGCAUCUUCGGGAAGAAAUGGAAUUCUCGGGUGCCAA,0.262
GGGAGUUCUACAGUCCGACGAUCCUCCCACCAAGAUCAGCCACCUCAGGCAUGGGGAGUAAUGAGACCAGAGCGCCUCUCUGGCACCACAGCAGGGAUCGUCAGGUAAUAAACACUCUUGAUUCCCUGAGGAAUGGAAUUCUCGGGUGCCAA,0.34
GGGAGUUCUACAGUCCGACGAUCGUCAGGUUGGGGACCAACCUUGGGCUUAUCCACCCCCCAGUCUUCCCUCCCUCUCUUGCCAGCACAUCCCUUAGUCCCCUUGAGACAAGUGGACCUAAGUGGCCGAGAGAUGGAAUUCUCGGGUGCCAA,0.639
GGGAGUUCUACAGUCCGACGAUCUUUCUUUGCAGGAGCUAGCCCAAAGGCAUCAAAUUUAAUAUGAUAAAAUGAAUUGCUAUACCUUAGAAACAAUGUGACUCUAUUAAAAUAGUAUGGGGUAAGUACCCUACUGGAAUUCUCGGGUGCCAA,0.387
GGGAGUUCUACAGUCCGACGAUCACCAGAGAGCCCUUGGUCCCAGGUCUCUUGAGCUUUUGUGUCAUGUUGCAGCAGAGUGAAGAUGGGGGGUUGGGGGUUAUUUAUUUUGCUUGUCCUUAUCCCUGCUUGGAUGGAAUUCUCGGGUGCCAA,3.31
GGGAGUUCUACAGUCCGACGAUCAGUCUCUGUACUUGGCUACACAGAUUGUAUUUUUAUUGUUAAUGCUCUCUUCUUAUGGAUACCUGCAUUUAACUUGUGGACUAUGUAAACACAAUAUAUAUCAAUAUCUAUGGAAUUCUCGGGUGCCAA,0.436

# Sample 4
# Target: Histone acetyltransferase KAT6A, winged helix 1, GST fusion (KAT6A, Homo sapiens, UniProt Q92794, residues 1-85)
# Technique: protein binding microarray
# Molecule type: double-stranded DNA, one strand shown
# Sample: in vitro
# Concentration: not given
# Notes: 8-mer, flanks averaged, mean of 2 arrays, mostly near background
# Baseline: not given
# Direction: higher = stronger binding
# Target sequence (chain): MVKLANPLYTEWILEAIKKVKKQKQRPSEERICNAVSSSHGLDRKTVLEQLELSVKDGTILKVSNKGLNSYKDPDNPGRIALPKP
Strand,E-score
AACGGCAC,0.213
CCTAGCCG,0.325
GCTATTCA,-0.0714
ACTGAATA,-0.16
AAGGTCCT,-0.189
AATATAGC,-0.0542
ATTGACTC,-0.156
AGCCCAGC,-0.101
CAGTTAAC,0.11
AGCCGGAA,0.149
CCATTACC,0.00238
AGTATGTC,-0.0759
CGACCCAA,-0.19
AATGTGAC,-0.11
ACTGGGAG,-0.0611
CCGAGGTA,-0.0476
AGATGCTG,-0.177
AAGCTGAG,-0.088
CCGAGGAG,-0.0602
GTAGAAGA,-0.109
GTCACTGA,-0.0876
CGCAGCAA,0.0331
CCTAAGCC,-0.131
AATTGCGA,0.0181

# Excerpt of the above (sample 2):
Strand,E-score
GTATGAAA,0.268
ACTAACAA,0.299
GTAGAATA,0.3
AAAATATC,0.256
CGTACATA,0.362
AATAGCAA,0.299
GTATAGAC,0.331
AGTACAAT,0.284
ATCAACAT,0.406
AACACTAG,0.279
